Results pooled from the literature.
Numbers after ± are the reported error. ≈ marks a conversion by molar mass, not a printed value.

`O=c1[nH]c(=O)[nH]c(=O)[nH]1` gave a serum concentration of > 152000 ng/mL (CD IGS rat, female, pregnant, serum; oral, 1000 mg/kg/day, 10 days, with rectangular renal crystals).
Under “serum uric acid”, `CCCc1nn(C)c2c(=O)[nH]c(-c3cc(S(=O)(=O)N4CCN(C)CC4)ccc3OCC)nc12` is recorded as 6.84 mg/dL (human patients; on drug).
`Oc1ccc2ccc3cccc4ccc1c2c34` gave a tissue concentration of 154 ± 23 ng/g (HPLC-fluorescence; Wistar rat, male, kidney; oral, 4 mg/kg PY, 24 h).
With `CC[C@@]1(O)C(=O)OCc2c1cc1n(c2=O)Cc2cc3c(CN(C)C)c(O)ccc3nc2-1` the Tmax was 1.97 h (human patients; oral, 2.5 mg daily, 5 days, cycle 1 day 5, median, alone).
`C#C[C@]1(CO)O[C@@H](n2cnc3c(N)nc(F)nc32)C[C@@H]1O` — result for “participants with drug-related adverse events”: 10% (healthy adults; oral, 2.25 mg once daily, alone or coadministered, together with: doravirine 100 mg once daily).
The Tmax of `Cn1nccc1Nc1nc(NCC(F)(F)F)c2nc[nH]c2n1` is reported as 0.5 to 2 h (NMRI mouse, female, uninfected, blood; intraperitoneal, 30 mg/kg, day 1, together with: ABT pretreatment).
For `[123I]c1cncc(OC[C@@H]2CCN2)c1`, the tissue/plasma ratio was 42.2 (SPECT; human, low plasma nicotine, thalamus; intravenous, dose not given; relative to: plasma).
`COc1ccc(C[C@@H]2NC(=O)[C@H]([C@@H](C)O)NC(=O)[C@@H]3[C@@H]4CCN3C(=O)[C@@H]3Cc5cn(c6ccc(F)cc56)CCCCCCN(Cc5ccc(cc5)CCNC(=O)[C@]5(C)CCCN5C2=O)C(=O)CCC(=O)N[C@@H](C)C(=O)N[C@H](CNC(=O)CCCCC[N+](C)(C)C)C(=O)N[C@@H](Cc2cccc(c2)CNC(=O)CO4)C(=O)N3)cc1` has a Tmax of 1.5 h (fasted healthy humans, plasma; oral, 100 mg single dose, with 1800 mg Labrasol, median).
`CN[C@@](C)(C[18F])C(=O)O` gave a tissue uptake of 0.7 ± 0.1 %ID/g (SCID mouse DU-145 xenograft, muscle; 60 min, post injection).
With `O=C(CC(=O)c1ccccc1)c1ccccc1` the absolute bioavailability was 11.5 ± 1.94% (Sprague-Dawley rat, male, plasma; oral, 50 mg/kg, regular emulsion).
`CC(=O)N[C@H](CCCCNC(=O)C(C)F)C(=O)N[C@@H](CS)C(=O)N[C@@H](CS)C(=O)N[C@@H](CCC(=O)O)C(=O)N[C@@H](Cc1c[nH]cn1)C(=O)N[C@H](Cc1ccccc1)C(=O)N[C@@H](CCCNC(=N)N)C(=O)N[C@@H](Cc1c[nH]c2ccccc12)C(=O)N[C@@H](CS)C(=O)N[C@@H](CCCNC(=N)N)C(=O)N1CCC[C@H]1C(=O)N[C@H](C(N)=O)C(C)C` (some centres unmarked) [fluorine-18 labelled] has a tissue uptake of 0.32 ± 0.08 %ID/g (C57BL/6 mice, male, B16-F10 tumour, pancreas; intravenous, 1 h).
`CN[C@H](CC(C)C)C(=O)N[C@H]1C(=O)N[C@@H](CC(N)=O)C(=O)N[C@H]2C(=O)N[C@H]3C(=O)N[C@H](C(=O)N[C@H](C(=O)O)c4cc(O)cc(O)c4-c4cc3ccc4O)[C@H](O)c3ccc(c(Cl)c3)Oc3cc2cc(c3O[C@@H]2O[C@H](CO)[C@@H](O)[C@H](O)[C@H]2O[C@H]2C[C@](C)(N)[C@H](O)[C@H](C)O2)Oc2ccc(cc2Cl)[C@H]1O`: “urinary clusterin difference” 1930 ng/24 h (Sprague-Dawley rat, male, urine; concentration not given, day 1, bolus dosing; relative to: humanized infusion group).
`O=c1[nH]c(Cc2ccccn2)nc2c1cnn2C1CCOCC1` has a Cmax of 99.8 nM (healthy men, extensive metabolizers, plasma; oral, 10 mg single dose, tablet, geometric mean).
`CSCC[C@@H]1NC(=O)[C@H](CC(=O)O)NC(=O)CNC(=O)[C@H](CCCNC(=N)N)NC(=O)[C@H](C)NC(=O)[C@H](CCC(=O)O)NC(=O)[C@H](CCCNC(=N)N)NC(=O)[C@@H]2CSSC[C@@H]3NC(=O)[C@H](CO)NC(=O)[C@H]([C@@H](C)O)NC(=O)[C@@H]4CCCN4C(=O)[C@H](C)NC(=O)[C@H](Cc4c[nH]c5ccccc45)NC(=O)[C@H](CC(=O)O)NC(=O)CNC(=O)[C@H](CCCNC(=N)N)NC(=O)CNC(=O)[C@H](CCC(N)=O)NC(=O)[C@@H]4CCCN4C(=O)[C@@H](NC(=O)CNC(=O)C(C)F)CSSC[C@H](NC(=O)CNC(=O)[C@H](C)NC(=O)[C@H](CC(C)C)NC(=O)[C@H](CSSC[C@@H](C(=O)NCC(N)=O)NC(=O)[C@H]([C@@H](C)O)NC(=O)[C@H](CCCNC(=N)N)NC(=O)[C@@H]4CCCN4C1=O)NC(=O)[C@H](CC(=O)O)NC(=O)[C@H](CO)NC(=O)[C@H](CC(=O)O)NC(=O)[C@H](CCC(N)=O)NC(=O)[C@H](CO)NC3=O)C(=O)N[C@@H](C(C)C)C(=O)N2` (some centres unmarked) [fluorine-18 labelled] gave a tissue uptake of 0.79 ± 0.17 %ID/g (nude mice U-87 MG xenograft, bone; intravenous, 0.5 h).
The Vz/F of `O[C@H]1CCCN[C@@H]1CCCn1cnc2c(Cl)c(Cl)ccc21` is reported as 1440 L (healthy human volunteers, plasma; oral, 100 mg, day 1, multiple ascending dose).
`CC(C)[C@H]1C(=O)N[C@@H](CCCN=C(N)N)C(=O)NCC(=O)N[C@@H](CC(=O)O)C(=O)N[C@H](Cc2ccccc2)C(=O)N1C` gave a clearance of 5 mL/min/kg (cynomolgus monkey, plasma; intravenous, 2 mg/kg).
For `CNC(=O)c1ccc(-c2cnn3ccc(C(=O)N(C)c4ccc(Cl)c(C(=O)OC)c4)cc23)cc1`, the AUC(0-8 h) was 0.12 µg·h/mL (beagle dogs, both sexes, plasma; oral, 50 mg/kg/day, day 14, 2-week toxicology study).
`Cc1cc(C(C#N)c2ccc(Cl)cc2)c(Cl)cc1NC(=O)c1cc(I)cc(I)c1O` (centres unmarked) gave an AUC(0-inf) of 45300 ± 8450 µg·h/mL (parasitized lambs, plasma; oral, 10 mg/kg, together with: moxidectin 0.2 mg/kg oral).
The helical content of `H-EALRHNASRTPSATELAHANN-OH` is reported as 0% (far-UV circular dichroism; peptide, sodium phosphate buffer 50 mM).
`CCCCCOc1ccc(-c2ccc(-c3ccc(C(=O)N[C@H]4C[C@@H](O)[C@@H](O)NC(=O)[C@@H]5[C@@H](O)[C@@H](C)CN5C(=O)[C@H]([C@@H](C)O)NC(=O)[C@H]([C@H](O)[C@@H](O)c5ccc(O)cc5)NC(=O)[C@@H]5C[C@@H](O)CN5C(=O)[C@H]([C@@H](C)O)NC4=O)cc3)cc2)cc1`: “Cmax steady state” 3900 ng/mL (human neonates, plasma; intravenous, 1.5 mg/kg/day after 3 mg/kg loading).
The Cmax of `CCCCCOc1ccc(-c2cc(-c3ccc(C(=O)N[C@H]4C[C@@H](O)[C@@H](O)NC(=O)[C@@H]5[C@@H](O)[C@@H](C)CN5C(=O)[C@H]([C@H](O)CC(N)=O)NC(=O)[C@H]([C@H](O)[C@@H](O)c5ccc(O)c(OS(=O)(=O)O)c5)NC(=O)[C@@H]5C[C@@H](O)CN5C(=O)[C@H]([C@@H](C)O)NC4=O)cc3)no2)cc1` is reported as 23300 ng/mL (young infants at least 1000 g, plasma; intravenous infusion, 7 mg/kg/day, day 4, median, 1 h infusion, repeat dosing).
The CMC of `colistin` is reported as 1.5 mM (dynamic light scattering; water; 25 °C).
For `CC[C@H](NC(C)=O)C(=O)N[C@@H](CCCN)C(=O)N[C@@H](CC(C)C)C(=O)N[C@@H](CCC(N)=O)C(=O)Nc1ccc2c(C)cc(=O)oc2c1`, the solubility was 5.48 ± 0.72 mM (≈ 3600 µg/mL) (shake-flask HPLC; 1 h, pH 7.2, 37 °C, 5% DMSO, 0.01% Triton X-100).

A few entries again:
`CC(C)[C@H]1C(=O)N[C@@H](CCCN=C(N)N)C(=O)NCC(=O)N[C@@H](CC(=O)O)C(=O)N[C@H](Cc2ccccc2)C(=O)N1C` gave a clearance of 5 mL/min/kg (cynomolgus monkey, plasma; intravenous, 2 mg/kg).
With `CC[C@@]1(O)C(=O)OCc2c1cc1n(c2=O)Cc2cc3c(CN(C)C)c(O)ccc3nc2-1` the Tmax was 1.97 h (human patients; oral, 2.5 mg daily, 5 days, cycle 1 day 5, median, alone).
The Vz/F of `O[C@H]1CCCN[C@@H]1CCCn1cnc2c(Cl)c(Cl)ccc21` is reported as 1440 L (healthy human volunteers, plasma; oral, 100 mg, day 1, multiple ascending dose).
For `[123I]c1cncc(OC[C@@H]2CCN2)c1`, the tissue/plasma ratio was 42.2 (SPECT; human, low plasma nicotine, thalamus; intravenous, dose not given; relative to: plasma).
